Experimental data of several laboratories.
± gives the spread as reported.

With `Cc1ccc(NC(=O)c2c(C)oc3ccc(O)c(CN4CCCCCC4)c23)cc1` the ΔTm was 2.1 °C (MYC Pu22 G-quadruplex DNA; circular dichroism; equimolar ligand).
With `CCCCC/C=C/C(=O)CCc1ccc(O)c(OC)c1` the IC50 was 86.2 ng/mL (mouse mAb 1-G12; antibody binding, indirect competitive ELISA; together with: coating antigen 6-OVA).
`CCCCCCCCCCCCCCCCn1cc[n+](Cc2ccccc2)c1C` has a biosensor fluorescence of 45% (hGrx1-roGFP2 redox biosensor; Trypanosoma brucei brucei, bloodstream form; 2-fold EC50, 4 h; baseline: fully reduced (DTT 1 mM)).
With `CCC/C(=C\C1=C(C(F)(F)F)C(=O)c2ccccc2C1=O)C(=O)N(CC)CC` the EC50 was 8.2 ± 0.43 µM (NF-κB; reporter gene, luciferase reporter; Pa03C; 24 h, basal activity).
`C1=[N+]2CCC[N+]3=Cc4ccc5[n]4[Au-]23[n]2c1ccc2-c1nc2ccccc2nc1-5.F[P-](F)(F)(F)(F)F` — result for “DNA unwinding concentration”: 5 µM (DNA topoisomerase I; relaxed pHOT1 plasmid; 37 °C).
The Kd of `CC[C@H](C)[C@H](NC(=O)[C@@H](CCCNC(=N)N)NC(=O)[C@H](CCCNC(=N)N)NC(=O)[C@@H]1CCCN1C(=O)[C@@H]1CCCN1C(=O)[C@H](CCCNC(=N)N)NC(=O)[C@@H]1CCCN1C(=O)[C@H](CCCNC(=N)N)NC(=O)[C@@H]1CCCN1C(=O)[C@H](CC(C)C)NC(=O)[C@H](Cc1ccc(O)cc1)NC(=O)[C@@H]1CCCN1C(=O)[C@@H]1CCCN1C(=O)[C@H](CCCCN)NC(=O)[C@H](CC(=O)O)NC(=O)[C@@H](N)C(C)C)C(=O)N[C@@H](Cc1ccc(O)cc1)C(=O)N[C@@H](CC(N)=O)C(=O)N[C@H](CCCNC(=N)N)C(=O)N[C@@H](CC(N)=O)C(=O)NCC(=O)N1CCC[C@H]1C(=O)N[C@@H](CCCNC(=N)N)C(=O)N[C@@H](CC1CCCCC1)C(=O)N[C@@H](Cc1ccccc1)C(=O)N[C@@H](CCC(N)=O)C(=O)N[C@@H](CC(C)C)C(=O)N[C@@H](CC(=O)O)C(=O)O` is reported as 100 ± 0.9 nM (70S ribosome Escherichia coli; ITC; pH 7.5, 30 °C).
For `CC(C)=CCN=C(N)NCCC[C@@H](NC(=O)CCCc1ccc(O)cc1)C(=O)N[C@@H](Cc1ccccc1)C(O)CC(=O)N[C@@H](Cc1ccc(O)cc1)C(=O)O` (stereo in doubt), inhibition read “no inhibition” (chymotrypsin; enzyme activity; up to 100 µM).
`C=C/C(=C/C(=O)C[C@H](C)C[C@@H](C)CC[C@H](O)[C@H](C)C(=O)/C=C/[C@H](C)[C@@H](C)O)CC` has an inhibition of 19% (PP1 (human); enzyme activity; MCF7; 50 µM, 4 h; baseline: untreated).
`N=C(N)NCCC[C@@H]1NC(=O)[C@H](CCCCN)NC(=O)[C@@H](Cc2ccccc2)NC(=O)[C@H](CC(=O)O)NC(=O)CNC1=O`: probe uptake “inhibited” (integrin receptors (human); fluorescence microscopy; A549; 200 µM, 20 min pre-incubation, together with: 10 µM probe).
Under ATP-evoked current, `COc1cc(C(C)C)c(Oc2cnc(N)nc2N)cc1I` is recorded as “no inhibition” (chicken P2X3 wild type; ion current, inhibitor, patch clamp; HEK293 transfected; 10 µM, together with: ATP 10 µM).
`COc1cc(/C=C/c2cc(C)n[nH]2)ccc1O` gave an inhibition of 65% (glutathione S-transferase; enzyme activity; MCF7; 25 µM, 48 h).
For `CCC/C(=C\C1=C(F)C(=O)c2ccccc2C1=O)C(=O)N(CC)CC`, the IC50 was 11.9 µM (NF-κB; reporter gene, inhibitor, luciferase reporter; concentration not given).
`C=CC(=O)N1[C@@H](c2ccc3c(c2)OCO3)c2[nH]c3ccccc3c2C[C@H]1C(=O)N1CCN(C)CC1` — result for inhibition: “no inhibition” (human cyclin E1 N112C:CDK2 complex; kinase activity; concentration not given, biochemical, together with: RB1 peptide or histone H1 substrate).
With `O=C(Nc1ccc(S(=O)(=O)Nc2nccs2)cc1)c1cc(-c2ccccc2)nc2ccccc12` the inhibition was ~75% (GFP-ChREBP; nuclear localization, confocal microscopy; HepG2; 3 µM, together with: glucose).
`COc1ccc(-c2cc(C(F)(F)F)nc(NCc3ccc(Cl)cc3)n2)cc1OC`: efficacy “no effect” (secretin receptor (endogenous); cAMP accumulation, allosteric modulator; NG108-15; 25 µM, together with: secretin(3-27)).
With `O=S(=O)(Nc1cscn1)c1c(F)cc(NCc2c(F)ccc(F)c2CN2CCC2)cc1F` the IC50 increase was > 1000 fold (Nav1.6 R1626A, human; ion current, inhibitor, patch clamp; baseline: R1626A over wild type).
Under “concentration for DNA cleavage”, `NC1=N[N+](=Cc2c3ccccc3cc3ccccc23)[Ga-3]23([S]1)([S]C(N)=N[N+]2=Cc1c2ccccc2cc2ccccc12)[S]C(N)=N[N+]3=Cc1c2ccccc2cc2ccccc12` is recorded as ≥ 30 µM (pBR322 plasmid DNA; agarose gel electrophoresis; 1 h, pH 8.2, 37 °C).
`C=C1CN(S(=O)(=O)c2ccc(C)cc2)CCCN(Cc2ccccc2)CCCN(S(=O)(=O)c2ccc(C)cc2)C1`: “protein level reduction” 50% (SORT human; degrader, tGFP-P2A-BFP reporter flow cytometry, measured: tGFP reporter fusion; HEK-293T transfected; 10 µM, 24 h).
`CC[C@H](C)[C@H](NC(=O)[C@@H]1CCCN1C(=O)[C@H](CCCNC(=N)N)NC(=O)[C@@H]1CCCN1C(=O)[C@@H]1CCCN1C(=O)[C@@H](NC(=O)[C@@H]1CCCN1C(=O)[C@H](CCCNC(=N)N)NC(=O)[C@@H]1CCCN1C(=O)[C@H](CC(C)C)NC(=O)[C@H](Cc1ccc(O)cc1)NC(=O)[C@H](CO)NC(=O)CNC(=O)[C@H](CCCCN)NC(=O)[C@H](CC(=O)O)NC(=O)[C@@H](N)C(C)C)[C@@H](C)O)C(=O)N[C@@H](Cc1ccc(O)cc1)C(=O)N[C@@H](CC(N)=O)C(=O)N[C@@H](CCCNC(=N)N)C(=O)N[C@@H](CC(N)=O)C(=O)NCC(=O)N1CCC[C@H]1C(=O)N[C@@H](CCCNC(=N)N)C(=O)N[C@@H](CC1CCCCC1)C(=O)N[C@@H](Cc1ccccc1)C(=O)N[C@@H](CCC(N)=O)C(=O)N[C@@H](CC(C)C)C(=O)N[C@@H](CC(=O)O)C(=O)O` has a Kd of 76 ± 20 nM (70S ribosome Escherichia coli; ITC; pH 7.5, 30 °C).
`CCC/C(=C\C1=C(OC)C(=O)c2ccccc2C1=O)C(=O)NOC` gave an EC50 of 6.1 ± 0.5 µM (NF-κB; reporter gene, luciferase reporter; NF90-8; 24 h, basal activity).
`CC[C@H](C)[C@H](NC(=O)[C@H](Cc1ccc(O)cc1)NC(=O)[C@@H](NC(=O)[C@H](CCCNC(=N)N)NC(=O)[C@@H](N)CC(=O)O)C(C)C)C(=O)N[C@@H](Cc1c[nH]cn1)C(=O)N1CCC[C@H]1C(=O)N[C@@H](Cc1ccccc1)C(=O)O` has an EC50 of 0.006 ± 0.0045 µM (angiotensin II receptor type 1, human; aldosterone secretion, agonist, EIA; H295R, β-arrestin1 overexpressing).
`O=C(NCCCCc1ccccc1)n1c(=O)oc2cc(-c3ccc(F)cc3)ccc21` — result for “duration of effect”: 6 h (acid ceramidase; enzyme activity and sphingolipid levels; SW-403 and RAW264.7; 20 µM).
For `CCOC(=O)C1NC(c2ccc[n+](C)c2)C23c4c5c6c7c8c9c(c%10c%11c2c2c4c4c%12c5c5c6c6c8c8c%13c9c9c%10c%10c%11c%11c2c2c4c4c%12c%12c5c5c6c8c6c8c%13c9c9c%10c%10c%11c2c2c4c4c%12c5c6c5c8c9c%10c2c45)C713` (stereo not drawn), remaining activity read “no effect” (26S proteasome; PEL cells; 20 µM, 24 h; baseline: untreated).
`Nc1nc2c(CN[C@H](CO)CCP(=O)(O)O)c[nH]c2c(=O)[nH]1` gave a selectivity ratio of 100 fold (HGPRT Trypanosoma cruzi; inhibitor; baseline: Ki T. cruzi HGXPRT over Ki T. cruzi HGPRT).
`CCN(CC)CC(=O)Nc1cccc(-n2cc(-c3ccc4ccc(-c5cn(-c6cccc(NC(=O)CN(CC)CC)c6)nn5)cc4c3)nn2)c1`: “HIF-2α protein level” 13.8% (HIF-2α; Western blot; nude mouse, tumour xenograft; ip, 15 mg/kg, 8 h; baseline: vehicle).
With `N=C(CF)NCCC[C@H](NC(=O)c1ccc(/N=N/c2ccccc2)cc1)c1nc2ccccc2[nH]1` the inhibition was ~33% (PAD2, human; histone H3 citrullination, western blot; HEK-293T expressing PAD2; 100 µM, 3 h).
For `CC[C@H](C)[C@H](NC(=O)[C@@H]1CCCN1C(=O)[C@H](CCCNC(=N)N)NC(=O)[C@@H]1CCCN1C(=O)[C@@H]1CCCN1C(=O)[C@@H](NC(=O)[C@@H]1CCCN1C(=O)[C@H](CCCNC(=N)N)NC(=O)[C@@H]1CCCN1C(=O)[C@H](CC(C)C)NC(=O)[C@H](Cc1ccc(O)cc1)NC(=O)[C@H](CO)NC(=O)CNC(=O)[C@H](CCCCN)NC(=O)[C@H](CC(=O)O)NC(=O)[C@@H](NC(=O)[C@H](CCCCN)NC(=O)c1ccc2c(c1)C(=O)OC21c2ccc(O)cc2Oc2cc(O)ccc21)C(C)C)[C@@H](C)O)C(=O)N[C@@H](Cc1ccc(O)cc1)C(=O)N[C@@H](CC(N)=O)C(=O)N[C@@H](CCCNC(=N)N)C(=O)N[C@@H](CC(N)=O)C(=O)NCC(=O)N1CCC[C@H]1C(=O)N[C@@H](CCCNC(=N)N)C(=O)N[C@@H](CC1CCCCC1)C(=O)N[C@@H](Cc1ccccc1)C(=O)N[C@@H](CCC(N)=O)C(=O)N[C@@H](CC(C)C)C(=O)N[C@@H](CC(=O)O)C(=O)O`, the Kd was > 10000 nM (70S ribosome Escherichia coli; ITC; pH 7.5, 30 °C).
`CSCc1ccccn1.F[P-](F)(F)(F)(F)F.F[P-](F)(F)(F)(F)F.[Ru+2].c1ccc(-c2ccccn2)nc1.c1ccc(-c2ccnc3c2ccc2c(-c4ccccc4)ccnc23)cc1` — result for “time to DNA binding”: ≤ 1 h (pUC19 plasmid DNA; agarose gel electrophoresis; concentration not given, together with: green light 19 J/cm^2).
`C=CC(C)(C)OCC1OC(OC2C3=C(C(C)COC(C)=O)CC(O)C3(C)C=C3C(COC)CCC3C(C)C2O)C(O)C(OC(C)=O)C1O` (stereo not drawn) — result for “cooperativity factor α”: 100 (14-3-3 protein sigma; binding to RAPTOR peptide, stabilizer, fluorescence polarization; range over 0 to 500 µM, together with: FITC-labelled RAPTOR peptide).
`CCCn1c(=O)c2[nH]c(-c3ccc(N(C)C(=O)c4ccc(C(F)(F)F)nc4)nc3)nc2n(CCC)c1=O` gave a selectivity ratio of > 400 fold (rat adenosine A2B receptor; radioligand displacement; HEK293 membranes; baseline: A2B over other adenosine receptors).
`C[n+]1c(/C=C/c2ccc(N(c3ccccc3)c3ccccc3)cc2)cc(/C=C2\Sc3ccccc3N2CCCN2CCCC2)c2ccccc21` has a relative fluorescence of ~5 (c-MYC Pu27 G-quadruplex; binding; baseline: Pu27 over other G4).
For `Nc1ncnc2c1ncn2C1CC(O)C(COP(=O)(O)OP(=O)(O)C(F)P(=O)(O)O)O1` (mixture of isomers), “delta effective pKa4” read -0.5 pK units (truncated human DNA polymerase lambda; dNTP incorporation, single-turnover kinetics; B sequence, A·T pair; baseline: non-enzymatic LFER line).
`O=c1c(O)cccn1CCCN1CCN(CCCn2cccc(O)c2=O)CC1` — result for “log K2 stability constant”: 5.71 (iron(III); 25 °C).
For `COc1cc(CCC(C)=O)ccc1O`, the IC50 was > 4000 ng/mL (mouse mAb 1-G12; antibody binding, indirect competitive ELISA; together with: coating antigen 3-OVA).
The EC50 of `CCSC[C@H](NC(=O)[C@H](Cc1ccc(O)cc1)NC(=O)[C@@H](NC(=O)[C@H](CCCNC(=N)N)NC(=O)CNC)C(C)C)C(=O)N[C@@H](Cc1c[nH]cn1)C(=O)N1CCC[C@H]1C(=O)N[C@@H](CC(C)C)C(=O)O` is reported as 0.055 ± 0.0212 µM (angiotensin II receptor type 1, human; aldosterone secretion, agonist, EIA; H295R, β-arrestin1 overexpressing).
`CC(C)CCC[C@@H](C)[C@H]1CCC([C@@H]2CC[C@H]3C[C@H](O)CC[C@]3(C)[C@H]2O)[C@]1(C)CC(=O)O` (stereo partly drawn) — result for “FXR target gene mRNA level”: “inhibited” (FXR, mouse; inhibitor; C57BL/6J male mice, antibiotic-treated, ileum and liver; oral gavage, dose not given, together with: taurocholic acid).

Excerpt of the above:
For `CC(C)=CCN=C(N)NCCC[C@@H](NC(=O)CCCc1ccc(O)cc1)C(=O)N[C@@H](Cc1ccccc1)C(O)CC(=O)N[C@@H](Cc1ccc(O)cc1)C(=O)O` (stereo in doubt), inhibition read “no inhibition” (chymotrypsin; enzyme activity; up to 100 µM).
`C=C/C(=C/C(=O)C[C@H](C)C[C@@H](C)CC[C@H](O)[C@H](C)C(=O)/C=C/[C@H](C)[C@@H](C)O)CC` has an inhibition of 19% (PP1 (human); enzyme activity; MCF7; 50 µM, 4 h; baseline: untreated).
`N=C(N)NCCC[C@@H]1NC(=O)[C@H](CCCCN)NC(=O)[C@@H](Cc2ccccc2)NC(=O)[C@H](CC(=O)O)NC(=O)CNC1=O`: probe uptake “inhibited” (integrin receptors (human); fluorescence microscopy; A549; 200 µM, 20 min pre-incubation, together with: 10 µM probe).
Under ATP-evoked current, `COc1cc(C(C)C)c(Oc2cnc(N)nc2N)cc1I` is recorded as “no inhibition” (chicken P2X3 wild type; ion current, inhibitor, patch clamp; HEK293 transfected; 10 µM, together with: ATP 10 µM).
